Assay results from different studies.
Parts stem from different laboratories: compare values within a part only. Substitutions count along the parent as printed.

Block 1
Target: ABI1, truncated, D143A, DHFR fusion (Arabidopsis thaliana, UniProt P49597)
Technique: DHFR PCA, dose-response
Medium: yeast
Setting: Hill fit, mean, not affinity
Together with: (+)-ABA, dose series
Direction: lower = more sensitive
Parent: PYL1, truncated, DHFR fusion (Arabidopsis thaliana, UniProt Q8VZS8); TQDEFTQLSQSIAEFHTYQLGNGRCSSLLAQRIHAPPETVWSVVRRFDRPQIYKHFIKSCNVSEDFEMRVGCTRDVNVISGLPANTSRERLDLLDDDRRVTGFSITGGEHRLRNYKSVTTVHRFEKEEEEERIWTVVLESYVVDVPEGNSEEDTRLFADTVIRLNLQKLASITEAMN
| Change | ABA EC50 [µM] |
| --- | --- |
| E38N | 7.32 |
| V121T | 127 |
| V136R | 667 |
| S104F | 457 |
| A30N | 17.1 |
| A30E | 7.53 |
| L29H | 4.26 |
| H55V | 0.115 |

Block 2
Target: CREB5, bZIP domain (human)
Technique: DHFR protein complementation
Medium: yeast
Setting: single substitutions, most at no-binding floor
Relative to: wild-type JUN-FOS pair
Direction: higher = stronger binding
Parent: JUN, bZIP domain (human); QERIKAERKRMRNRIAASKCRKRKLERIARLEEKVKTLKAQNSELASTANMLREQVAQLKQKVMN; partner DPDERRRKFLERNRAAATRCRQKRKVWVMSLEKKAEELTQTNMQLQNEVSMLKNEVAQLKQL
| Change | binding fitness |
| --- | --- |
| L52E | -1.4 natural log |
| R53C | -1.08 natural log |
| T37F | -0.216 natural log |
| S47N | -0.246 natural log |
| N42R | -0.745 natural log |
| Q55H | -0.535 natural log |
| A49H | -1.12 natural log |
| E54K | -0.476 natural log |

Other studies, line by line
P1: viral docking peptide; KKAKRRLFTISDS; partner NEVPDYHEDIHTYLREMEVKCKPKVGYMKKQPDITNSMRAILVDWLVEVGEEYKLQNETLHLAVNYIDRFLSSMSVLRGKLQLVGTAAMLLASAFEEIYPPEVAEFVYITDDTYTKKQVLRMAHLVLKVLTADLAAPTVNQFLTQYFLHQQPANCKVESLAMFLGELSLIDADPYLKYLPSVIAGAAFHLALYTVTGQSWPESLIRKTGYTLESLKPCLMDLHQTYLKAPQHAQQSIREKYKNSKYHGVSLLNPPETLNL
| Molecule | target | test | system | setting | scale | measurement | value |
| --- | --- | --- | --- | --- | --- | --- | --- |
| PhoQ, residues 284 288 289 292 302 303 AGHLVA | PhoP, residues 12 14 15 18 19 NHFIF (Escherichia coli, UniProt P23836) | Sort-seq, measured: YFP reporter | E. coli | PhoQ-PhoP variant library, together with: 10 µM Mg2+ | relative to: high Mg2+ state, higher = stronger signaling | fold induction | 0.587 |
| P1 R6A | CCNA2, cyclin fold, Cln2 fusion (human) | yeast growth competition, sequencing | yeast | strong parent motif | relative to: not given, higher = stronger binding | normalised enrichment score | 4.86 |
